{"data": "Published values of several laboratories", "ALDH1A2": "Retinal dehydrogenase 2 (ALDH1A2, Homo sapiens, UniProt O94788)", "KCNH2": "Voltage-gated inwardly rectifying potassium channel KCNH2 (KCNH2, Homo sapiens, UniProt Q12809)", "UGT1A1": "UDP-glucuronosyltransferase 1A1 (UGT1A1, Homo sapiens, UniProt P22309)", "CYP2D6": "Cytochrome P450 2D6 (CYP2D6, Homo sapiens, UniProt P10635)", "CYP3A7": "Cytochrome P450 3A7 (CYP3A7, Homo sapiens, UniProt P24462)", "note": "Each line is one published result; not all experiments were run side by side.", "sequence of UniProt P22309 (whole entry, looked up)": "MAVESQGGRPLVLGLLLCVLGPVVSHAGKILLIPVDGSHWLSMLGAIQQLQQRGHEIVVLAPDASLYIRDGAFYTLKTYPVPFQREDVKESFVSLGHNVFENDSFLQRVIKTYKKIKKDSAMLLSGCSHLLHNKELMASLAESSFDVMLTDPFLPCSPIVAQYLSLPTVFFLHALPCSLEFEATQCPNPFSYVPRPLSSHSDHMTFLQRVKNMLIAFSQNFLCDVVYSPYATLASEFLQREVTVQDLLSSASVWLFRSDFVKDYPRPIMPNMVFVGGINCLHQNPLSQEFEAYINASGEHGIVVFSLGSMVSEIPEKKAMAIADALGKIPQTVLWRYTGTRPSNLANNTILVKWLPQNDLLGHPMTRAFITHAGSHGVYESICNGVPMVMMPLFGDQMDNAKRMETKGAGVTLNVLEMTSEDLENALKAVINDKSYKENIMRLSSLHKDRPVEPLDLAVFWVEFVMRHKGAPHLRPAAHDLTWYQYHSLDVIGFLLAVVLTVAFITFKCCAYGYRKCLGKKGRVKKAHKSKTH", "sequence of UniProt P10635 (whole entry, looked up)": "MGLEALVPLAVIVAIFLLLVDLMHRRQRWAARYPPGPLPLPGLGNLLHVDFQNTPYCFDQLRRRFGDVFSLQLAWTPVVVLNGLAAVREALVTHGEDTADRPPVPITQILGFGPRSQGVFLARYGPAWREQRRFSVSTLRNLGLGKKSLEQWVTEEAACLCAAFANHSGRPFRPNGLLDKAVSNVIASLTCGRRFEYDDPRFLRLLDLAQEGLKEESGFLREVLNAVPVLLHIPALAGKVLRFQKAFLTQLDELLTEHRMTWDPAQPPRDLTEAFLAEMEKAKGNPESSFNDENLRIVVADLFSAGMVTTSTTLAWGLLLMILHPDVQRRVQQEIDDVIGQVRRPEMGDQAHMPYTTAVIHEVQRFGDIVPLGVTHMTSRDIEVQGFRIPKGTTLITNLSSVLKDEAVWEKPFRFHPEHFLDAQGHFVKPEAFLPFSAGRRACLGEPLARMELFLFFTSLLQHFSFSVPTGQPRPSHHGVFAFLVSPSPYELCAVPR", "sequence of UniProt Q12809 (whole entry, looked up)": "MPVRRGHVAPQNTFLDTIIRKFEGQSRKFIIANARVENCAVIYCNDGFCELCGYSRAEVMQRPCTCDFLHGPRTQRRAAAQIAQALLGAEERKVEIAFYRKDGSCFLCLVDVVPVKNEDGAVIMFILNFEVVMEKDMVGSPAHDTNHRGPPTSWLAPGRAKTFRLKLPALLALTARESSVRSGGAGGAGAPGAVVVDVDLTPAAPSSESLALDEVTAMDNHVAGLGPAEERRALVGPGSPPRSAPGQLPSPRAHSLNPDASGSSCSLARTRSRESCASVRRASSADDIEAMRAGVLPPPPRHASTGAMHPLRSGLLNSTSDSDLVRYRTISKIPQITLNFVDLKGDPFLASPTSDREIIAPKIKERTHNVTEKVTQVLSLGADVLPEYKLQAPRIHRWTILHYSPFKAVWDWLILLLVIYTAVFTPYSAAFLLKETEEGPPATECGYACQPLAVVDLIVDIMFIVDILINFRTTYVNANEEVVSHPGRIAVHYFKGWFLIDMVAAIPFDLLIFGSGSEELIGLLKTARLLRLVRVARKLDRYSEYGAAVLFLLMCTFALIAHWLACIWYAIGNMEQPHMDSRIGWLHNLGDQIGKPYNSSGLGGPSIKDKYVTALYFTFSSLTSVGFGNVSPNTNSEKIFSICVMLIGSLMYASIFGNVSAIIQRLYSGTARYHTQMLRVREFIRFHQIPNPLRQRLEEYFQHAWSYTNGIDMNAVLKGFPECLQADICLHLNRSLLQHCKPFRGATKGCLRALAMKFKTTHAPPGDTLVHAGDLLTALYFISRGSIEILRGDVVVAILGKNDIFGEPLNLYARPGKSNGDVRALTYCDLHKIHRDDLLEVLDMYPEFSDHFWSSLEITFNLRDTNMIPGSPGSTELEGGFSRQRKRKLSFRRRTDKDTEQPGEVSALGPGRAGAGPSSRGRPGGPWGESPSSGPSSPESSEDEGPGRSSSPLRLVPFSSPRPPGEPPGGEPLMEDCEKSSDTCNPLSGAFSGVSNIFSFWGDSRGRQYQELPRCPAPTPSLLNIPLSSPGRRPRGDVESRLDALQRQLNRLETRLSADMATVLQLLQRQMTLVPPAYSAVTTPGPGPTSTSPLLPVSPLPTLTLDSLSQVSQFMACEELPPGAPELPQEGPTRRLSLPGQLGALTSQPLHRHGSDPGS", "sequence of UniProt O94788 (whole entry, looked up)": "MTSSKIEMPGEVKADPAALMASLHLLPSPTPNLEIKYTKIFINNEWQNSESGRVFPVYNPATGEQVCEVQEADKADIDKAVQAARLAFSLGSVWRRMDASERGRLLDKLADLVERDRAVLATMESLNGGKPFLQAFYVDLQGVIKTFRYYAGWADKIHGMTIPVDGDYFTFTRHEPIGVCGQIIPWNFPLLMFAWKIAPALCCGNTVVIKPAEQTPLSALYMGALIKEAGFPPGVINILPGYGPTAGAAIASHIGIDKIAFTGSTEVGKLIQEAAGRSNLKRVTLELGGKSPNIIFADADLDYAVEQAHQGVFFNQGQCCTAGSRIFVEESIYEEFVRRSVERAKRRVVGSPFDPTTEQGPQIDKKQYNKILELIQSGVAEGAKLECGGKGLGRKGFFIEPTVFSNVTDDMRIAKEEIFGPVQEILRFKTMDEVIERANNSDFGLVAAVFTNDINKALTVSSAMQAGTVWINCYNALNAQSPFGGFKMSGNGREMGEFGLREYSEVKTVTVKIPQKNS", "sequence of UniProt P24462 (whole entry, looked up)": "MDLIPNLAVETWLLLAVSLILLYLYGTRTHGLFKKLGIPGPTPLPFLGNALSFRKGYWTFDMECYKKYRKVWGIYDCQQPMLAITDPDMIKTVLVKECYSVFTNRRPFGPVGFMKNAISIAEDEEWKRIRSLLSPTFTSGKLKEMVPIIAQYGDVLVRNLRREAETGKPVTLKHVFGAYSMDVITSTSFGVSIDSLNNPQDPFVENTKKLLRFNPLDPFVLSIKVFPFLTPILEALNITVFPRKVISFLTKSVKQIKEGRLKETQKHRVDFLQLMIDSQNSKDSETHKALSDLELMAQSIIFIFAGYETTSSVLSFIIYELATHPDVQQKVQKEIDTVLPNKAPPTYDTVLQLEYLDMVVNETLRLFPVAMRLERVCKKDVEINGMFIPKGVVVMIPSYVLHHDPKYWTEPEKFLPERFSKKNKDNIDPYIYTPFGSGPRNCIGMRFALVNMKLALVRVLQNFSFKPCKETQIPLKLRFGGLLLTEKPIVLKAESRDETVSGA", "sequence of UniProt Q9Y6L6 (whole entry, looked up)": "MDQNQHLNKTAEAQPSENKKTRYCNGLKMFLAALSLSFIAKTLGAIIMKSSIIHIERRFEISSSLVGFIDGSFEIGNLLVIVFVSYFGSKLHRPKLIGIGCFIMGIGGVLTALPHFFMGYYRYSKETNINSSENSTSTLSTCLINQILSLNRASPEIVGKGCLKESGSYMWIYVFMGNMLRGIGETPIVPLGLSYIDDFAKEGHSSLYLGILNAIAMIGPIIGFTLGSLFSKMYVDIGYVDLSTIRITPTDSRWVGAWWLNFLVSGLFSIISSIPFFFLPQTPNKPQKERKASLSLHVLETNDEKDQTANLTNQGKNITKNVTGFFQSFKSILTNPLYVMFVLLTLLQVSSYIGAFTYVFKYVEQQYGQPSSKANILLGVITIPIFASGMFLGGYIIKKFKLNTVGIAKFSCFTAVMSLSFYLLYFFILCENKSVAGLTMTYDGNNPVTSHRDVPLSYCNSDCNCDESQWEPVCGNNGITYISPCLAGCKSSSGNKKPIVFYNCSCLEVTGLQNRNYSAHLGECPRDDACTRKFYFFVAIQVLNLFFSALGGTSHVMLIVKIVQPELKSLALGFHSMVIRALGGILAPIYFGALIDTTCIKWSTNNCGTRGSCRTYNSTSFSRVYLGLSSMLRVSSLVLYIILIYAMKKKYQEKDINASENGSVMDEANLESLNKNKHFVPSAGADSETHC", "sequence of UniProt O15245 (whole entry, looked up)": "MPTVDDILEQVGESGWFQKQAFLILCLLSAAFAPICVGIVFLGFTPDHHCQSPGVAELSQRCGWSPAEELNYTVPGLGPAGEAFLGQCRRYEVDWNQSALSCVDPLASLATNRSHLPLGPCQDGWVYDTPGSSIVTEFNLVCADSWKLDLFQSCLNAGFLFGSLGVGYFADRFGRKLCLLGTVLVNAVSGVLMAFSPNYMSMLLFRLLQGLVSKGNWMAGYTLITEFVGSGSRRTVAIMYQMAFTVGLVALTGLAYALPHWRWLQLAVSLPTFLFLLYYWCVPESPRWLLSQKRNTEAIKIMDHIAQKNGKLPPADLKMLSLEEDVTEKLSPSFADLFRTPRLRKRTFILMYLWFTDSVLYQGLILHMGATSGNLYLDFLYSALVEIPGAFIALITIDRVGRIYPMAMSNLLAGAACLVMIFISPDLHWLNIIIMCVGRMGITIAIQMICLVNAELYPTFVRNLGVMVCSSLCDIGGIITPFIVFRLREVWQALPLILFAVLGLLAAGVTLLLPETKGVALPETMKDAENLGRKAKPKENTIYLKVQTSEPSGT"}
{"SMILES": "Nc1nc2c(s1)C(c1ccccc1Cl)CC(=O)N2 (stereo not shown)", "target": "ALDH1A2", "assay": "enzyme activity, inhibitor, fluorescence", "endpoint": "IC50", "result": "< 10 µM"}
{"SMILES": "CNCCN1CCN(c2cnc3c(cc(C(=O)NCc4ccc(Cl)cc4)c(=O)n3CC(=O)N3CC(C)(F)C3)n2)C1=O", "target": "KCNH2", "assay": "ion current, inhibitor, patch clamp", "setting": "40 µM", "endpoint": "inhibition", "result": "42%"}
{"SMILES": "CN(CCC(=O)O)C(=O)c1ccc2c(c1)CC[C@@H]1[C@@H]2CC[C@]2(C)C(c3cncc(F)c3)=CC[C@@H]12", "target": "UGT1A1", "assay": "enzyme activity, inhibitor", "system": "human, liver microsomes", "endpoint": "Ki", "result": "1.2 µM"}
{"SMILES": "Cc1ccc(S(=O)(=O)c2ncccc2[N+](=O)[O-])cc1", "target": "ALDH1A2", "assay": "enzyme activity, inhibitor, fluorescence", "endpoint": "IC50", "result": "0.4 µM"}
{"SMILES": "CSc1ccccc1C(=O)NCCn1cc(C(=O)NCc2cccc(C)n2)c(=O)c2cc3c(cc21)OC(F)(F)O3", "target": "CYP2D6", "assay": "enzyme activity, inhibitor", "system": "human, liver microsomes", "setting": "20 min, without NADPH, with preincubation", "endpoint": "IC50", "result": "> 100 µM"}
{"SMILES": "O=C(CCCCCCC(=O)Nc1ccccc1)NO", "target": "CYP2D6", "assay": "enzyme activity, inhibitor, fluorescence", "endpoint": "IC50", "result": "4.89 µM"}
{"SMILES": "CSc1ccccc1C(=O)NCCn1cc(C(=O)NCc2cccc(C)n2)c(=O)c2cc3c(cc21)OCO3", "target": "CYP2D6", "assay": "enzyme activity, inhibitor", "system": "human, liver microsomes", "setting": "20 min, without NADPH, with preincubation", "endpoint": "IC50", "result": "> 100 µM"}
{"SMILES": "O=c1[nH]c(=O)c(Cc2cccc(C(F)(F)F)c2)c([C@H]2CC[C@H](c3ccccc3)CC2)[nH]1", "target": "Solute carrier family 22 member 1 (SLC22A1, Homo sapiens, UniProt O15245)", "assay": "transporter uptake, inhibitor", "setting": "1 µM", "endpoint": "inhibition", "result": "< 50%"}
{"SMILES": "COCCc1ccc(OCC(O)CNC(C)C)cc1 (stereo not shown)", "target": "CYP2D6", "system": "human, plasma", "setting": "oral, 100 mg, single dose, healthy volunteers", "endpoint": "Tmax", "result": "1.99 h"}
{"SMILES": "O=C(O)[C@H]1O[C@@H](Oc2ccc([C@@H]3[C@@H](CC[C@H](O)c4ccc(F)cc4)C(=O)N3c3ccc(F)cc3)cc2)[C@H](O)[C@@H](O)[C@@H]1O", "target": "Solute carrier organic anion transporter family member 1B1 (SLCO1B1, Homo sapiens, UniProt Q9Y6L6)", "assay": "transporter uptake, inhibitor", "endpoint": "IC50", "result": "22.7 µM"}
{"SMILES": "CN(C)C(=O)CN1CCN(c2cnc3c(cc(C(=O)NCc4ccc(Cl)cc4)c(=O)n3CC(=O)N3CC(C)(F)C3)n2)C1=O", "target": "KCNH2", "assay": "ion current, inhibitor", "setting": "40 µM", "endpoint": "inhibition", "result": "42.7%"}
{"SMILES": "O=C(O)COc1cccc(-c2nc(Nc3ccc4[nH]ncc4c3)c3ccccc3n2)c1", "target": "UGT1A1", "assay": "enzyme activity, inhibitor", "endpoint": "IC50", "result": "0.629 µM"}
{"SMILES": "CC(C)(C)[C@@H]1NC(=O)O[C@@H]2CCC[C@H]2OC/C=C/C(F)(F)c2nc3ccccc3nc2O[C@@H]2C[C@@H](C(=O)N[C@]3(C(=O)NS(=O)(=O)C4(C)CC4)C[C@H]3C(F)F)N(C2)C1=O", "target": "CYP3A7", "assay": "enzyme activity, inhibitor, fluorescence", "setting": "20 µM, 10 min, pH 7.4", "endpoint": "inhibition", "result": "≥ 50%"}
{"SMILES": "CCOC(=O)C1=C(CN2CCC[C@@H]2C(=O)Nc2ccc(B(O)O)cc2)NC(c2nccs2)=N[C@H]1c1ccc(F)cc1Br", "target": "KCNH2", "assay": "ion current, inhibitor, patch clamp", "system": "HEK293", "setting": "0.3 µM, pH 7.4", "endpoint": "inhibition", "result": "3.52%"}
{"SMILES": "CC(=O)c1cc(C(=O)N[C@@H](C)Cn2ccc(-c3ccc(C#N)c(Cl)c3)n2)[nH]n1", "target": "UGT1A1", "assay": "enzyme activity, inhibitor", "system": "human, liver microsomes", "endpoint": "IC50", "result": "6.4 µM"}
{"SMILES": "Cc1cnc(C(=O)N[C@H]2CCCCC/C=C\\[C@@H]3C[C@@]3(C(=O)NS(=O)(=O)C3CC3)NC(=O)[C@@H]3C[C@@H](Oc4nc5ccccc5c5ccccc45)CN3C2=O)cn1", "target": "CYP3A7", "assay": "enzyme activity, inhibitor, fluorescence", "setting": "20 µM, 10 min, pH 7.4", "endpoint": "inhibition", "result": "≥ 50%"}
{"note": "Repeated from above:"}
{"SMILES": "O=C(O)COc1cccc(-c2nc(Nc3ccc4[nH]ncc4c3)c3ccccc3n2)c1", "target": "UGT1A1", "assay": "enzyme activity, inhibitor", "endpoint": "IC50", "result": "0.629 µM"}
